Measurements of several laboratories.
Protocols differ between the studies behind these lines.
B1: TEFM 51-360 (Homo sapiens, UniProt Q96QE5); sequence looked up; chain DENAKEPENALDKLFSSEQQASILHVLNTASTKELEAFRLLRGRRSINIVEHRENFGPFQNLESLMNVPLFKYKSTVQVCNSILCPKTGREKRKSPENRFLRKLLKPDIERERLKAVNSIISIVFGTRRIAWAHLDRKLTVLDWQQSDRWSLMRGIYSSSVYLEEISSIISKMPKADFYVLEKTGLSIQNSSLFPILLHFHIMEAMLYALLNKTFAQDGQHQVLSMNRNAVGKHFELMIGDSRTSGKELVKQFLFDSILKADPRVFFPSDKIVHYRQMFLSTELQRVEELYDSLLQAIAFYELAVFDSQP
B2: sufS 1-406 (Escherichia coli, UniProt P77444); chain MIFSVDKVRADFPVLSREVNGLPLAYLDSAASAQKPSQVIDAEAEFYRHGYAAVHRGIHTLSAQATEKMENVRKRASLFINARSAEELVFVRGTTEGINLVANSWGNSNVRAGDNIIISQMEHHANIVPWQMLCARVGAELRVIPLNPDGTLQLETLPTLFDEKTRLLAITHVSNVLGTENPLAEMITLAHQHGAKVLVDGAQAVMHHPVDVQALDCDFYVFSGHKLYGPTGIGILYVKEALLQEMPPWEGGGSMIATVSLSEGTTWTKAPWRFEAGTPNTGGIIGLGAALEYVSALGLNNIAEYEQNLMHYALSQLESVPDLTLYGPQNRLGVIAFNLGKHHAYDVGSFLDNYGIAVRTGHHCAMPLMAYYNVPAMCRASLAMYNTHEEVDRLVTGLQRIHRLLG
Sequence of UniProt Q14980 (whole entry, looked up): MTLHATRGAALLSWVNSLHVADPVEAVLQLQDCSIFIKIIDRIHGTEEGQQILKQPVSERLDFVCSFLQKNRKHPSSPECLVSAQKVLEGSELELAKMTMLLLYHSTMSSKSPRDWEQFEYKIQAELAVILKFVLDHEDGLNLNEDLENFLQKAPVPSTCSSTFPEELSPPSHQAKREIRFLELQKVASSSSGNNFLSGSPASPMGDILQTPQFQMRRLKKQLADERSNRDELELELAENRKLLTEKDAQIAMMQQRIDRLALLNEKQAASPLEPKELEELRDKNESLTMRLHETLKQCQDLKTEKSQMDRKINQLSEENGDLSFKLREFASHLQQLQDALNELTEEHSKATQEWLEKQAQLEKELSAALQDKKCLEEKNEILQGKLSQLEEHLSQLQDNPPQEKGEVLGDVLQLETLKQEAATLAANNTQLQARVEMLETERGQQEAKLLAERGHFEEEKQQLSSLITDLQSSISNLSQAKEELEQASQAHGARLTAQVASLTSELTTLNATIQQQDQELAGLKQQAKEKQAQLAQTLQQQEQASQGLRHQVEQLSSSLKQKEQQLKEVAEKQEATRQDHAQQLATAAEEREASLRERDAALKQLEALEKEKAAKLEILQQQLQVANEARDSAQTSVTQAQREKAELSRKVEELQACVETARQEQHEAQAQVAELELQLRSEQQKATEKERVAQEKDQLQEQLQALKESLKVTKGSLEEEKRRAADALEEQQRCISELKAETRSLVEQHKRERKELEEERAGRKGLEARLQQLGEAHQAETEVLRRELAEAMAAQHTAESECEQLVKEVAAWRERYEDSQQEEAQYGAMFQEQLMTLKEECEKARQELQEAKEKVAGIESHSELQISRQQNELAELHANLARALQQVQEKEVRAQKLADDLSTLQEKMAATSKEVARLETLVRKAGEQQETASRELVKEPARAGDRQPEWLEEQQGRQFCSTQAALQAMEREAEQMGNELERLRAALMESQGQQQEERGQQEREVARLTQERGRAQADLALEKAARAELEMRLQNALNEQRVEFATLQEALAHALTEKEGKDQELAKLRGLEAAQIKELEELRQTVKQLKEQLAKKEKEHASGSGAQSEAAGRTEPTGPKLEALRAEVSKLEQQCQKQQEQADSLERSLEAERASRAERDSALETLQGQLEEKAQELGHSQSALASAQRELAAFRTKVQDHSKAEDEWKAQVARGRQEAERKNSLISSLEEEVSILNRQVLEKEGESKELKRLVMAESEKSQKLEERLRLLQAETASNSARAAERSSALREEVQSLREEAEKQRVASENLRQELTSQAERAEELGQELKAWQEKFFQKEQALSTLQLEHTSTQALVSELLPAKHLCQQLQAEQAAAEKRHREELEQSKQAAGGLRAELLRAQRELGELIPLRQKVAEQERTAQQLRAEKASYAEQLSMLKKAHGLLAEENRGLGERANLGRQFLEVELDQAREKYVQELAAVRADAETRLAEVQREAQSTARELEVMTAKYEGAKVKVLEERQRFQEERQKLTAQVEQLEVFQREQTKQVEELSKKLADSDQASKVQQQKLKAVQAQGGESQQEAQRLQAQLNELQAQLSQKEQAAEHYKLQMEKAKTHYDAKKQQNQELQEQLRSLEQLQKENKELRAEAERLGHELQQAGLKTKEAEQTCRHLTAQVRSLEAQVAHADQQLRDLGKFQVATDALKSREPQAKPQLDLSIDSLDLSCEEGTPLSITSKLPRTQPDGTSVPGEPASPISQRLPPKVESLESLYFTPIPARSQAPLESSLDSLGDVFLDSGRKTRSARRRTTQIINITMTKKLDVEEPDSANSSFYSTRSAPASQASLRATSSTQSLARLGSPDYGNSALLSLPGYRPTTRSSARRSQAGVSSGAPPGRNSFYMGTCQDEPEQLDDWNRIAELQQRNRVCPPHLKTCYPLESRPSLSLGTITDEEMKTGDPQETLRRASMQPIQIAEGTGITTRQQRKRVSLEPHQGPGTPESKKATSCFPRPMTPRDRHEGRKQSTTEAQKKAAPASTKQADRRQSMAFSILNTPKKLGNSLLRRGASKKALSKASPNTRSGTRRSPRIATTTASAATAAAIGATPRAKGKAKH
Sequence of UniProt P54790 (whole entry, looked up): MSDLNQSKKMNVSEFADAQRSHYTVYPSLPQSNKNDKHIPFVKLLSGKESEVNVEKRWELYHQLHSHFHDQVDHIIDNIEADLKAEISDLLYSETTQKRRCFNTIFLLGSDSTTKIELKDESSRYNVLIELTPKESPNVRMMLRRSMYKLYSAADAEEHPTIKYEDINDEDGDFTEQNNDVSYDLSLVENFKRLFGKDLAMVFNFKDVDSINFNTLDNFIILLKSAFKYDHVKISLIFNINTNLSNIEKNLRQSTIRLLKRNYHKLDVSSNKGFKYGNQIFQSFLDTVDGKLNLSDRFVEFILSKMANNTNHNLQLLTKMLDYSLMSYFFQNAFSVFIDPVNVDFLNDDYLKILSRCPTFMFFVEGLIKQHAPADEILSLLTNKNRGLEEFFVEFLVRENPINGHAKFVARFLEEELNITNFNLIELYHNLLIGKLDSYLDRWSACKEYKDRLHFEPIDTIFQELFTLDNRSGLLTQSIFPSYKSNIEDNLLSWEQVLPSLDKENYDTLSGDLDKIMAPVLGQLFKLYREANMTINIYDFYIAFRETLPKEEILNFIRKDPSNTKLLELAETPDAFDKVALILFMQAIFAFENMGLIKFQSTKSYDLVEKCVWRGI
Sequence of UniProt Q09312 (whole entry, looked up): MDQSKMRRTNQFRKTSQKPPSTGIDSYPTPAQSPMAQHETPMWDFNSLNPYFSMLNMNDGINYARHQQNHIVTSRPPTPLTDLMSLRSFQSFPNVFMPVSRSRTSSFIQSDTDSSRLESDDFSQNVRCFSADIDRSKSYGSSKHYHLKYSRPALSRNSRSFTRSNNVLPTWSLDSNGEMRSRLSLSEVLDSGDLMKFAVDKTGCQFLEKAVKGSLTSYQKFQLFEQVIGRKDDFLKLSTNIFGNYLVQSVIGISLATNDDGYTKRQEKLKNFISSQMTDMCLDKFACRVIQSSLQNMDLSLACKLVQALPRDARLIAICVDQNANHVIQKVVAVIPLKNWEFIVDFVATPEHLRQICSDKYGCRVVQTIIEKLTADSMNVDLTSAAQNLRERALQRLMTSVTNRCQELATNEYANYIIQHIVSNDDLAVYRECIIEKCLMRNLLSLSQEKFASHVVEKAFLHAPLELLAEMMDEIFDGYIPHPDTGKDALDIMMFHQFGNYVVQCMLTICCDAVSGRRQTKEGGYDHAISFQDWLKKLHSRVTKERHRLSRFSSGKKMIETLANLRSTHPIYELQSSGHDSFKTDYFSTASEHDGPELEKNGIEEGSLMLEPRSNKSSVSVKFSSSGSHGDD
Sequence of UniProt O00411 (whole entry, unmodified, looked up): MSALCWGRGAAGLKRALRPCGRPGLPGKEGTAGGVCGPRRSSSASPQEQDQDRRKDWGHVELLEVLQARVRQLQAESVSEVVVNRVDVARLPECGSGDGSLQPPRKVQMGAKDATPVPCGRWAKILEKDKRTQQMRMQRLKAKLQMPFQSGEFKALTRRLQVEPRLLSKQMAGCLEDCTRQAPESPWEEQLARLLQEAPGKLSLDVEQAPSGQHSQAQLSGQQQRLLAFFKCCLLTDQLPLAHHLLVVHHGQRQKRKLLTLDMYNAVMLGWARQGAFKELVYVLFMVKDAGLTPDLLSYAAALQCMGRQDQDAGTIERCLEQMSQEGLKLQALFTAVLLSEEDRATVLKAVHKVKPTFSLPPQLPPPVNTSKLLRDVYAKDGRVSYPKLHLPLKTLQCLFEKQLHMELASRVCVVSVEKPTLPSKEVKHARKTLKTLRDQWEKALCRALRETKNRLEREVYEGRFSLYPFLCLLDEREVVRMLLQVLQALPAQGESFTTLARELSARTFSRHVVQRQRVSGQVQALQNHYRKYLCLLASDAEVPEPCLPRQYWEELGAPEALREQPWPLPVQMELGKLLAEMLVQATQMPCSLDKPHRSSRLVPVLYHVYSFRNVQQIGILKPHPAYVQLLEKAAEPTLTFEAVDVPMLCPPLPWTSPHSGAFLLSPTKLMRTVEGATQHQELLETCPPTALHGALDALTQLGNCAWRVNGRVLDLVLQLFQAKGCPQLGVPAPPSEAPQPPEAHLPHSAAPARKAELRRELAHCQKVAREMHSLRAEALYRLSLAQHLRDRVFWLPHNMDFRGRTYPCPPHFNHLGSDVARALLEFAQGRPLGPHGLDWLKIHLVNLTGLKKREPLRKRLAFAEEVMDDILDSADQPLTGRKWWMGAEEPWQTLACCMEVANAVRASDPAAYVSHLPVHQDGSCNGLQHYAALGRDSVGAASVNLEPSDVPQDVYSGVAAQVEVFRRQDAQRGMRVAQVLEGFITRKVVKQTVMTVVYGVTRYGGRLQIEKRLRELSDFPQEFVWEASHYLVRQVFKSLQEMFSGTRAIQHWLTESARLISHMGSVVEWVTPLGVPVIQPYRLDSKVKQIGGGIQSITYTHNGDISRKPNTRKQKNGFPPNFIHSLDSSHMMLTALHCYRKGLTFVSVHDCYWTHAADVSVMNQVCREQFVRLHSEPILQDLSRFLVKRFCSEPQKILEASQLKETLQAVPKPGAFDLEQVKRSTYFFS
Sequence of UniProt P09119 (whole entry, looked up): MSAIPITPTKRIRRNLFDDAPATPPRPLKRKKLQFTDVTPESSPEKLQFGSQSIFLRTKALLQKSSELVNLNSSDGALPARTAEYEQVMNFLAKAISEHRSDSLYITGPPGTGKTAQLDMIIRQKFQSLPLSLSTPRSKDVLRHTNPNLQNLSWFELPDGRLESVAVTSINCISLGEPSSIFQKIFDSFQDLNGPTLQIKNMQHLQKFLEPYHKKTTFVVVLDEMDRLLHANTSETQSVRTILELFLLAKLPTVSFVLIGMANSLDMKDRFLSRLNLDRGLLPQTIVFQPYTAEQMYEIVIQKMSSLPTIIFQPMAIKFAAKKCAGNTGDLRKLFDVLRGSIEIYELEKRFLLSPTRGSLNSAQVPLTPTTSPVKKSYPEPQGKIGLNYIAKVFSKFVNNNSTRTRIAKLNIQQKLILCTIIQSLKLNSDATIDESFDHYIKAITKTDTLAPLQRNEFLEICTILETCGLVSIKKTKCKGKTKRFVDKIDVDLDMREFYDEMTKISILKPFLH

`KISLEHKTKYSNEYGD (gld-3 879-894 (Caenorhabditis elegans, UniProt Q95ZK7); sequence looked up)` has a competition decrease of 13 fold (fbf-2 164-575 (Caenorhabditis elegans, UniProt Q09312); fluorescence polarisation; peptide; relative to: wild-type GLD-3, higher = weaker competition).
`B1 (TEFM 51-360)` — result for binding: “binds” (POLRMT 120-1230 E555A (Homo sapiens, UniProt O00411); cryo-EM).
Under cross-linked residues, `FGA (Homo sapiens, UniProt P02671)` is recorded as “K463 to K317” (ANO3 (Homo sapiens, UniProt Q9BYT9); cross-linking MS; together with: DSSO).
`Peginesatide` has a mRNA level of 2.3 fold (UT7/EPO; RT-qPCR, item: THBS1; concentration not given, 90 min, normalized to HPRT1; relative to: vehicle).
With `MMP9 fragment (Homo sapiens)` the relative migration was 2 fold (Lrp1 (Rattus norvegicus, UniProt G3V928); Schwann cell migration; Schwann cells; 10 nM, 4 h; relative to: control, higher = more migration).
Under cross-linked residues, `FGG (Homo sapiens, UniProt P02679)` is recorded as “K231 to K1584” (LAMC1 (Homo sapiens, UniProt P11047); cross-linking MS; together with: DSSO).
`DYNLRB1/DYNLL1/DYNLT1/DYNC1LI2/DYNC1I2/DYNC1H1 dynein-1 complex (Homo sapiens)` gave a Ka of over 1.6e+06 M⁻¹ (BICD2/KASH5 chimera BicD2 CC, KASH5 LIC-BD 1-98, HaloTag; pull-down).
With `colistin` the MIC was at most 1 µg/mL (Pseudomonas aeruginosa; clinical isolate RKI 21/12).
For `CDC6 (Saccharomyces cerevisiae, UniProt P09119)`, interaction screen read “cross-linked” (ORC3 (Saccharomyces cerevisiae, UniProt P54790); cross-linking MS; hits only).
`DYNC1H1 (Homo sapiens, UniProt Q14204)` — result for “cortical dynein loss half-time”: 20.7 min (NUMA1 1-705 (Homo sapiens, UniProt Q14980); time-lapse imaging; Flp-In T-REx mitotic; nanomolar concentration, together with: BI2536).
For `B2 (sufS 1-406)`, “subunits per oligomer” read 1 (sufE 1-138 C51A/E107C (Escherichia coli, UniProt P76194); crystal structure).
For `EKPIDSETKM`, “normalised SPR binding response” read 0 normalised RU (human MAGI1-2/6 PDZ construct (MBP fusion); surface plasmon resonance; peptide; concentration not given; higher = stronger binding).
`Ro60 (Bos taurus)` gave a response units of over 200 RU (RO60 331-345; SPR).
The IC50 of `CREBBP KIX domain (Homo sapiens, UniProt Q92793)` is reported as over 8 µM (KMT2A fragment, C-terminal Tyr (Homo sapiens); competition with ligand, competitive fluorescence polarization).
`GSGAGHETIV`: “normalised SPR binding response” 46 normalised RU (human SCRIB PDZ3-4 tandem (MBP fusion); surface plasmon resonance; peptide; concentration not given; higher = stronger binding).

Excerpt of the above:
`B1 (TEFM 51-360)` — result for binding: “binds” (POLRMT 120-1230 E555A (Homo sapiens, UniProt O00411); cryo-EM).
Under cross-linked residues, `FGA (Homo sapiens, UniProt P02671)` is recorded as “K463 to K317” (ANO3 (Homo sapiens, UniProt Q9BYT9); cross-linking MS; together with: DSSO).
